Measured values pooled from the literature.
Parts stem from different laboratories: compare values within a part only.

Sample 1
Target: Histone acetyltransferase KAT6A, winged helix 2, GST fusion (KAT6A, Homo sapiens, UniProt Q92794, residues 85-181)
Method: protein binding microarray
Molecule type: double-stranded DNA, one strand shown
Medium: in vitro
Concentration: not given
Notes: 8-mer, flanks averaged, mean of 2 arrays, mostly near background
Baseline: not given
Reading: higher = stronger binding
Residues (chain): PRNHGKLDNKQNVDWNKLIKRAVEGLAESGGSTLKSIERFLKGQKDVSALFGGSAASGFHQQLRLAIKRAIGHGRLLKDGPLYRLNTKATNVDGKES
Strand | E-score
GGTACTGA | -0.0744
CAATATTG | 0.0882
ATCGCCCC | -0.0622
GATTTCAC | 0.0813
CTTTTCTC | 0.0551
ATAAATCG | 0.0766
CAGGGTAC | -0.135
AGAGATTA | -0.106

Sample 2
Cell line: HEK-293T/ACE2
Concentration: 10 µM
Time: 16 h
Baseline: vehicle
SMILES | viability [%]
Nc1nc2[nH]cc(CCc3ccc(C(=O)N[C@@H](CCC(=O)O)C(=O)O)cc3)c2c(=O)[nH]1 | 85.3
O=c1[nH]c(=O)n([C@H]2C[C@H](O)[C@@H](CO)O2)cc1C(F)(F)F | 77.8
CC(NCCc1ccc(O)cc1)C(O)c1ccc(O)cc1 (stereo not drawn) | 101
Nc1ccc(S(=O)(=O)NC(=O)c2ccccc2)cc1 | 101

Sample 3
Target: Fragile X messenger ribonucleoprotein 1, C-terminal low-complexity region (Fmr1, Mus musculus, UniProt P35922)
Method: RNA Bind-n-Seq
Molecule type: RNA
Medium: in vitro
Concentration: 200 nM
Notes: whole 134-nt RNA, ends assumed
Added: 150 mM LiCl
Baseline: input library
Reading: higher = stronger binding
Library: 7-deaza-guanosine replaces G
Constant ends, left off below: GGGAGUUCUACAGUCCGACGAUC … UGGAAUUCUCGGGUGUCAAGG
Strand | log2 enrichment
CAAGUCCUGUGCUACACAUCGUAUGUACCGAAUCGGGUGGGUGGGUUUUUUUGGGAAAGUAUUAUGUUACGCCGUUCGGAUCUGCACUUC | -0.802
UGGCCCUGGUGGCAUGCGGGGAGGAAGAGGUGGCCUCAUGGAUCGUGGUGGUCCCGGUGGAAUGUUCAGAGGUGGCCGUGGUGGAGACAC | 0.26
CAAGUCCUGUGCUACACAUCGUAUGUACCGAAUCGGGUUUUUGGGUUUGGGAGGGAAAGUAUUAUGUUACGCCGUUCGGAUCUGCACUUC | -0.673
UCCUGUGCUACACAUCGUAUGUACCGAAUCGGAAAAAAAGGAAAAAAAGGAAAAAAAGGGAAAGUAUUAUGUUACGCCGUUCGGAUCUGC | -0.781
AAGUCCUGUGCUACACAUCGUAUGUACCGAAUCGGGUUUUUUUGGGAGGGUUUGGGAAAGUAUUAUGUUACGCCGUUCGGAUCUGCACUU | -0.888
GUCCUGUGCUACACAUCGUAUGUACCGAAUCGGGGCCCCCGGCCCCCGGGGCCCCCGGGAAAGUAUUAUGUUACGCCGUUCGGAUCUGCA | -3.14

Sample 4
Target: Replicase polyprotein 1ab, polymerase (rep, Severe acute respiratory syndrome coronavirus 2, UniProt P0DTD1)
Effect on: enzyme activity
Mode: inhibitor
Concentration: 20 µM
Structure (SMILES) | inhibition [%]
CO[C@@H](C)Cn1c(=O)n(C)c2cnc3ccc(-c4cncc(C(C)(C)O)c4)cc3c21 | 5.61
CNc1ncc2cc(-c3cc(NC(=O)NCCC(C)(C)C)c(F)cc3C)c(C)nc2n1 | -1.02
N#C/C(=C\c1cccn1S(=O)(=O)c1cccc([N+](=O)[O-])c1)S(=O)(=O)c1ccc(F)cc1 | 3.29
C=C1C(=O)O[C@@H]2/C=C(\C)CC/C=C(\C)CC[C@@H]12 | -0.63
O=C(/C=C/c1c(C(=O)O)[nH]c2cc(Cl)cc(Cl)c12)Nc1ccccc1 | 30.1
CN1CCC(COc2cnc(-c3cccc(Cn4nc(-c5cccc(C#N)c5)ccc4=O)c3)nc2)CC1 | 0.97
C[C@@H](N)[C@H]1CC[C@H](C(=O)Nc2ccncc2)CC1 | -7.68
Cc1ccc(S(=O)(=O)n2c(N)nc3ccccc32)cc1 | -2.56
COc1ccc2[nH]c(-c3ccccc3)c(CCNC(C)=O)c2c1 | 1.01
CNC(=S)C1(c2ccccn2)CCCS1 (stereo not drawn) | 4.02
CO[C@H]1C[C@H](O[C@H]2CC[C@@]3(C)[C@H](CC[C@@H]4[C@@H]3CC[C@]3(C)[C@@H](C5=CC(=O)OC5)[C@@H](OC(C)=O)C[C@]43O)C2)O[C@@H](C)[C@@H]1O | 4.01
NC(=O)c1cnc2[nH]ccc2c1N[C@@H]1[C@@H]2CC3C[C@H]1C[C@@](O)(C3)C2 | 1.88
CC(NCCC(c1ccccc1)c1ccccc1)c1ccccc1 (stereo not drawn) | -9.59
C1CCc2nnnn2CC1 | 1.37
Cc1cc(O)c2c(c1)C(=O)c1cccc(O)c1C2=O | -2.93
Nc1nc2[nH]cc(CCc3ccc(C(=O)N[C@@H](CCC(=O)O)C(=O)O)cc3)c2c(=O)[nH]1 | 30.3
Cl/C=C/C[N+]12CN3CN(CN(C3)C1)C2 | 1.21
CCCc1ncc(C[n+]2ccccc2C)c(N)n1 | -2.27
CCC1(C)CC(=O)NC1=O (stereo not drawn) | -6.8
CCOc1ccc(NC(=O)CC(C)O)cc1 (stereo not drawn) | -1.82
Cc1cc(-c2ccc(/N=N/c3ccc4c(S(=O)(=O)O)cc(S(=O)(=O)O)c(N)c4c3O)c(C)c2)ccc1/N=N/c1ccc2c(S(=O)(=O)O)cc(S(=O)(=O)O)c(N)c2c1O | 104
COc1cc2nc(N3CCC(N4CCCCC4)CC3)nc(NC3CCCCCC3)c2cc1OC | 10.9
Cc1nc(C#Cc2ccnc(Cl)c2)c(C)n1-c1ccc(OC(F)(F)F)cc1 | 0.79
CCN(CC)C(=S)SSC(=S)N(CC)CC | 13.4
NC(=O)c1cc[n+](CC2=C(C(=O)O)N3C(=O)[C@@H](NC(=O)[C@@H](c4ccccc4)S(=O)(=O)[O-])[C@H]3SC2)cc1 | 1.11

Sample 5
Target: Replicase polyprotein 1ab, main protease (rep, Severe acute respiratory syndrome coronavirus 2, UniProt P0DTD1)
Effect on: enzyme activity
Mode: inhibitor
Concentration: 20 µM
Notes: hit confirmation
Structure (SMILES) | inhibition
C=C1c2cccc(O)c2C(=O)C2C(=O)[C@]3(O)C(=O)C(C(N)=O)C(=O)[C@@H](N(C)C)[C@@H]3[C@@H](O)[C@H]12 (stereo partly drawn) | 91%
C=C1C(=O)O[C@@H]2[C@H]3O[C@]3(C)CC/C=C(\C)CC[C@@H]12 | 1.5%
O=C(O)C=C1NN(Cc2nc3cc(C(F)(F)F)ccc3s2)C(=O)c2ccccc21 | 12.5%
C=Cc1c(C)c2cc3nc(c(CC(=O)O)c4[nH]c(cc5nc(cc1[nH]2)C(C)=C5CC)c(C)c4C(=O)O)C(CCC(=O)O)C3C (stereo not drawn) | 40.2%

Mixed results
Method: protein-binding microarray
Molecule type: double-stranded DNA, one strand shown
Medium: in vitro
Concentration: not given
Notes: k-mer, scored over probes, only values ≥0.25
Reading: higher = stronger binding
ETS1 K379A: Protein C-ets-1 (ETS1, Homo sapiens, UniProt P14921, residues 1-441, K379A, full length assumed)
Sequence of UniProt P14921 (whole entry, unmodified, looked up): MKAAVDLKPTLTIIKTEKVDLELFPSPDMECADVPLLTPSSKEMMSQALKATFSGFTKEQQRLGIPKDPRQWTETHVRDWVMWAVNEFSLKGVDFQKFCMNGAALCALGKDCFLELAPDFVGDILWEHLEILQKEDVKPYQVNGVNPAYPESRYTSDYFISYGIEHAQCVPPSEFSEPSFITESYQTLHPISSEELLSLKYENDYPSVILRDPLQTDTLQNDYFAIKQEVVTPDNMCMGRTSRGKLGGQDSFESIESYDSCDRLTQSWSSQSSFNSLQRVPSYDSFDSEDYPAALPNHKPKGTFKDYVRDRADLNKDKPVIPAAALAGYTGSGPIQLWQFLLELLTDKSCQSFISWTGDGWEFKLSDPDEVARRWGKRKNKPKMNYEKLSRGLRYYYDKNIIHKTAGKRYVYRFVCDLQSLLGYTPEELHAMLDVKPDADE
TBP1: TATA-box-binding protein 1 (TBP1, Arabidopsis thaliana, UniProt P28147, residues 1-200, full length assumed)
Sequence of UniProt P28147 (whole entry, looked up): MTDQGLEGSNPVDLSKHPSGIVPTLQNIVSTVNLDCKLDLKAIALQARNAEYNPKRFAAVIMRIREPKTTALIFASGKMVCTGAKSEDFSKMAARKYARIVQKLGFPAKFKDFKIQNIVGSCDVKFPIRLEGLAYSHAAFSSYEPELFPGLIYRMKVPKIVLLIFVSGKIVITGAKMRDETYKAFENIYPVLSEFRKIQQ
Strand | target | E-score
CATCCCGG | ETS1 K379A | 0.373
ACTAATA | TBP1 | 0.326
ATATTAGG | ETS1 K379A | 0.274
ACACTTA | TBP1 | 0.284

A few entries again (mixed results):
Strand | target | E-score
ATATTAGG | ETS1 K379A | 0.274
CATCCCGG | ETS1 K379A | 0.373
ACTAATA | TBP1 | 0.326
ACACTTA | TBP1 | 0.284
